Measurements of several laboratories.
Parts stem from different laboratories: compare values within a part only.

Study 1 — target: Sox, HMG box (Pigoraptor chileana); technique: Spec-seq; molecule type: double-stranded DNA, one strand shown; matrix: in vitro; concentration: not given; notes: whole probe, mean of replicates; relative to: not given; direction: lower = stronger binding; measurement: relative binding energy; constant ends, left off below: GAGTCGTCTCGTCAGCAC … CCGTAGAGCACTCAGGTC
Residues (chain): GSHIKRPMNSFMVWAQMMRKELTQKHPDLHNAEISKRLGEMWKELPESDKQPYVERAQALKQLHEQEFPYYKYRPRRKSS
Sequence = CATGGCA; value = 0.515 ln ratio
Sequence = AATTGTT; value = -3.27 ln ratio
Sequence = CATCTCA; value = 0.316 ln ratio
Sequence = GTTGGTT; value = 0.954 ln ratio
Sequence = ATCTGTT; value = -1.14 ln ratio
Sequence = CATATCG; value = 0.416 ln ratio
Sequence = CATAGAC; value = -0.34 ln ratio
Sequence = CATACAT; value = -0.187 ln ratio
Sequence = CATTGCG; value = 0.177 ln ratio
Sequence = CATACCA; value = 0 ln ratio
Sequence = CATGCTT; value = 0.701 ln ratio
Sequence = CATGGTC; value = 0.463 ln ratio
Sequence = CATAAGG; value = -0.357 ln ratio
Sequence = GCTTGTT; value = -1.95 ln ratio
Sequence = GCCAGTT; value = 0.365 ln ratio
Sequence = GTATGTT; value = 0.256 ln ratio
Sequence = TGTAGTT; value = -0.367 ln ratio
Sequence = TTTGGTT; value = 0.353 ln ratio
Sequence = CATTAAC; value = -0.0112 ln ratio
Sequence = CATGTGG; value = 0.648 ln ratio
Sequence = CATGTTA; value = 0.629 ln ratio
Sequence = CATTCAC; value = -0.149 ln ratio
Sequence = TGCTGTT; value = -0.604 ln ratio

Study 2 — technique: RNA Bind-n-Seq; molecule type: RNA; matrix: in vitro; concentration: 365 nM; relative to: no-protein control; direction: higher = stronger binding; measurement: RBNS enrichment (R)
Target: RNA binding protein fox-1 homolog 2, RRM domain, GST-SBP tag (RBFOX2, Homo sapiens, UniProt O43251-10, residues 100-194)
Notes: natural RNA segment, single round, ends assumed
Constant ends, left off below: GGGAGUUCUACAGUCCGACGAUC … UGGAAUUCUCGGGUGCCAA
Target sequence (chain): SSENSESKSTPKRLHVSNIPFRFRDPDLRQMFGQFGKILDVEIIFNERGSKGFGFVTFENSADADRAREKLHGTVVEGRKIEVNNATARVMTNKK
Sequence = UAGCCACUGGCCAAGACUUGCUGACCUUCUAUUUUUUCUAAUUUUCCUUAAUAAACAGAUUCAUUUAGUUAUUUCAUAUAGGCAUCAAUAUGCAUUUAGCUUUAGUUUAC; value = 1.2
Sequence = UUUUAAUUUAUUAUGCCAUGAAUUUAUAAACAUUUAAUAUAAAACAUUAUAACAUUUGCUGUUUUAAAAUUUUUGCUAUUUUUUCACAAACUGAUAUUCAAAAUAUUAAA; value = 1.12
Sequence = AUUAAUUUAUUCUUUUUUUCUUAAAGAAGAAAAAGACAUUGGUUGUUGUUACAAAAAGUCUAAAUUACUGUUGGUUGAAACACAGCAGCUGUGGAGUUCAGUCCAGGCAU; value = 0.418
Sequence = UCACCUGCUAGUACAAUCUCCACAACUUGAAUGGCAUUGGUUGUUCUGUAAUUCCUGCCAAAAGCAUCACAAGUUGUACAUCAUCAAGGCUCCCUUUGCACUCCCAAGAA; value = 1.59
Sequence = GGAGGCCAAGGUCAGAAAGAUGCCCCGAGAAGCUCCAGCUUUGCUUUCUGCCCAGCCCAUCUUGCCUGCAUGGUGCCUCUGGGUCUUUAAAGGAGGGUGGUAGGUACCAA; value = 6.43
Sequence = CAUUUUCCUGGUUAAGAAAUCUGUAUAAAGUUAGUGAGAUGCAUAUUCUUUAUAUAAGGUGGGCAUCAAGCAACCAGAAGUGCAAACUUCCCUCCCUUUACUUCUGUUGC; value = 0.602
Sequence = GGGUCUGCUUAACUGCCAAGAGCAGGUCCUGGAGUUCCCUUCACCUGCAGAGUCCUUUUCAUGACCUAGGAGGUCUUAUUCAAAGCCCUCAUUGACAGAGGAGGAAACAG; value = 0.221
Sequence = UGGGAGGCAGCUGCAGAUGGGAUUUCUGAGUUAAGGACAAGGUCUACAGAGUGAGUUCCAGGACAGCCGGGGCUAUACAGAGAAACCCUGGGGAAACCCUUGGGGAAAAA; value = 0.267

Study 3 — technique: protein-binding microarray; molecule type: double-stranded DNA, one strand shown; matrix: in vitro; concentration: 250 nM; notes: 60-bp whole probe; with: salmon DNA 0.4 mg/ml; relative to: random background probes; direction: higher = stronger binding; measurement: log fluorescence; constant ends, left off below: GCCTAGCAC … GTCTTGATTCGCTTGACGCTGCTG
Target: Interferon regulatory factor 5, full length, phosphomimetic (IRF5, Homo sapiens, UniProt Q13568-2, residues 1-514, K96S/S451D/S453D/S456D/S462D)
Sequence = TCATTACCGCATATCGGACTGTGCTAG; value = 0.563 z-score
Sequence = GACGGACTGGACTAACGGGACGTGCTA; value = -0.734 z-score
Sequence = TCACTTTCAGTTTTCCTACTGTGCTAG; value = 8.95 z-score
Sequence = TTCGGTTTCCTTATCCTTTAGTGCTAG; value = 2.17 z-score
Sequence = GACGGTCTCGGTATCGGAACGTGCTAG; value = 1.65 z-score
Sequence = ATGGAAATCTCAATGGGTTAGTGCTAG; value = 0.375 z-score
Sequence = TTAGCACTGGGGTTTCGATTAGTGCTA; value = 5.14 z-score
Sequence = CTCTCCATGTGTTTAAAAAGGTGCTAG; value = 0.218 z-score
Sequence = GACGGTTCCGTTTTCGGGACGTGCTAG; value = 1.95 z-score
Sequence = GACGGACTGCTACTGCTAACGTGCTAG; value = -0.744 z-score
Sequence = GACGGACTGGGTCTCGGAACGTGCTAG; value = -0.503 z-score
Sequence = TTAGGTTTTGACACTGGGTTAGTGCTA; value = 0.138 z-score
Sequence = TTAGGACTTCTTATCCTTTAGTGCTAG; value = -0.0361 z-score
Sequence = AAGTAAAATGCAAAGAGGAAGTGCTAG; value = 0.0623 z-score
Sequence = GACGAACTGCTTATCCTGACGTGCTAG; value = -0.326 z-score
Sequence = TTAGAACTGGGGACTGGATAAGTGCTA; value = -0.222 z-score

Study 4 — technique: universal PBM; molecule type: double-stranded DNA, one strand shown; matrix: in vitro; concentration: 600 nM; direction: higher = stronger binding; measurement: E-score
Target: Sal-like protein 4, full length isoform A (SALL4, Homo sapiens, UniProt Q9UJQ4, residues 1-1053)
UniProt Q9UJQ4, sequence (whole entry, looked up): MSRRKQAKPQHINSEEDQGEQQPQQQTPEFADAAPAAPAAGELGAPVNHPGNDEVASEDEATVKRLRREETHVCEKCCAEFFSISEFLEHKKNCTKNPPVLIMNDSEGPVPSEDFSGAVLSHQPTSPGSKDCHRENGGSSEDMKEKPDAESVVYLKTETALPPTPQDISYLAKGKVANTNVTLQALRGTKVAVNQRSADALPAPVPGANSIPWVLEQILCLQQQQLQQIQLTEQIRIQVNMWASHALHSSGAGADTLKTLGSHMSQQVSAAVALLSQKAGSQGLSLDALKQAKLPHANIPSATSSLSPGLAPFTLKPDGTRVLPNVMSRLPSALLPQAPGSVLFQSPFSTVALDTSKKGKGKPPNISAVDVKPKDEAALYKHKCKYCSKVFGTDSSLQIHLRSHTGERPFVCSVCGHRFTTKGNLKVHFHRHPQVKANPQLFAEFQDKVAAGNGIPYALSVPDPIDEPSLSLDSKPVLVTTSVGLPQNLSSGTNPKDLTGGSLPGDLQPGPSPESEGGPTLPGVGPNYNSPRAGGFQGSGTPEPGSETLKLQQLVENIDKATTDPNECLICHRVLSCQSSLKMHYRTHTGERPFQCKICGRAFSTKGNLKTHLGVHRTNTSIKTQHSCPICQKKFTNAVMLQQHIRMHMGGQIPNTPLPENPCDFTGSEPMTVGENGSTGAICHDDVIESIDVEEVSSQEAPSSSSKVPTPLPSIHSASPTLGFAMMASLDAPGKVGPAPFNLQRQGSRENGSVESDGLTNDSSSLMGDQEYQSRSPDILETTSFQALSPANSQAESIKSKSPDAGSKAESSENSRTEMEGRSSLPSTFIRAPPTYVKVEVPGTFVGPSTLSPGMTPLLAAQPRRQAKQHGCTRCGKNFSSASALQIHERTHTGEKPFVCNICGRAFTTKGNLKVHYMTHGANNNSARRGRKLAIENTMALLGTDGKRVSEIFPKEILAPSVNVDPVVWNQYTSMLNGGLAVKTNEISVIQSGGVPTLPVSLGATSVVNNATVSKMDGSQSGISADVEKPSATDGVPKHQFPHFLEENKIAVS
Notes: 8-mer, flanks averaged, mean of replicates
Sequence = ACACTCGG; value = -0.135
Sequence = CCGCAGCA; value = -0.233
Sequence = AATACGCT; value = 0.175
Sequence = AAGACCAA; value = 0.0588
Sequence = ATGGATGG; value = -0.0156
Sequence = CCGTGGGC; value = -0.341
Sequence = CAAACGCA; value = 0.0181
Sequence = TAGCGTGA; value = 0.0712
Sequence = CAATACAA; value = 0.252
Sequence = ATTGGGCG; value = -0.0402
Sequence = GGAAATGA; value = 0.234
Sequence = GCCCTGTA; value = -0.0675
Sequence = CGGGGGTC; value = -0.427
Sequence = AAGTTGAT; value = 0.165
Sequence = GACGCCAC; value = -0.297
Sequence = GGACGTAA; value = -0.0278
Sequence = AAGCGTTA; value = 0.0343
Sequence = AACGGTGA; value = -0.156
Sequence = ATATTCAC; value = 0.309
Sequence = CGAAAAGC; value = -0.106
Sequence = TCCGGTCA; value = -0.304
Sequence = AGCAGTAC; value = 0.0345
Sequence = AAGCACGG; value = -0.274
Sequence = AGGAAATC; value = 0.053
Sequence = CACCCTGG; value = -0.225
